Measurements of several laboratories.
Numbered parts are unrelated; each lists some results of a single study. Changes are numbered by the printed parent chain.

Set 1
Target: CREB3L4, bZIP domain (human)
Technique: DHFR protein complementation
Matrix: yeast
Setting: single substitutions, most at no-binding floor
Reference: wild-type JUN-FOS pair
Reading: higher = stronger binding
Endpoint: binding fitness
Starting sequence: JUN, bZIP domain (human); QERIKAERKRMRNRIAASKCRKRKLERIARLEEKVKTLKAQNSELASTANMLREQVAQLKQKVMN; partner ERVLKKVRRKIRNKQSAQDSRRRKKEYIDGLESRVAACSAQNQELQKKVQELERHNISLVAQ
T48H: -1.47 natural log
E33C: -1.11 natural log
K34R: -1.4 natural log
T48F: -1.41 natural log
M51C: -1.38 natural log
A57K: -1.57 natural log
S43P: -1.37 natural log
V35C: -1.13 natural log
K34C: -1.47 natural log
L52G: -1.48 natural log
E54D: -1.09 natural log
N42Q: -1.37 natural log
K39N: -1.5 natural log
A49S: -1.53 natural log
T37S: -1.21 natural log
A40H: -1.6 natural log
E32I: -1.5 natural log
R30N: -1.48 natural log
L31D: -1.5 natural log
N42G: -1.45 natural log
R53P: -1.48 natural log
E32W: -1.54 natural log
L52M: -1.48 natural log

Set 2
Target: CCNE2, cyclin fold, Cln2 fusion (human)
Technique: yeast growth competition, sequencing
Matrix: yeast
Setting: weak parent motif
Reference: not given
Reading: higher = stronger binding
Endpoint: normalised enrichment score
Starting sequence: CUX1 docking peptide (human); SRIRRELFIEEIQ; partner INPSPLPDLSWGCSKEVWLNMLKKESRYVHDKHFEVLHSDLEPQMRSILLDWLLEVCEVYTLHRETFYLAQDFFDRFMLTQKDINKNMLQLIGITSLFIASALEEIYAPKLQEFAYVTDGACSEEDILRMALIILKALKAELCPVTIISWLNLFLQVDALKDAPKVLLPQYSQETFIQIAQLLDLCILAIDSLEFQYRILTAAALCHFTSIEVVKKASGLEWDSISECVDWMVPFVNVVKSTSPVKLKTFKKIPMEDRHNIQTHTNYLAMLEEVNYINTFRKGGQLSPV
SRIRREAFIEEIQ [L7A]: 0.189
SRIRKELFIEEIQ [R5K]: 0.783
SRIRRELFAEEIQ [I9A]: -0.183
SRIRKELLIEEIQ [R5K F8L]: 0.523
SRIRRELFIAEIQ [E10A]: 0.603
SRIARELFIEEIQ [R4A]: 0.134
SRIRRALFIEEIQ [E6A]: 1.75
SRIRRELFIEEAQ [I12A]: -0.42
SRIRRELAIEEIQ [F8A]: 0.53
SRIRAEAFIEEIQ [R5A L7A]: -0.374

Set 3
Target: RNA binding protein fox-1 homolog 2, RRM domain, GST-SBP tag (RBFOX2, Homo sapiens, UniProt O43251-10, residues 100-194)
Technique: RNA Bind-n-Seq
Form: RNA
Matrix: in vitro
Tested at: 365 nM
Setting: natural RNA segment, single round, ends assumed
Reference: no-protein control
Reading: higher = stronger binding
Endpoint: RBNS enrichment (R)
Residues (chain): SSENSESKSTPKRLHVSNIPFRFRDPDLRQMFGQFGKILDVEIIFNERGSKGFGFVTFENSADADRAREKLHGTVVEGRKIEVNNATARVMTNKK
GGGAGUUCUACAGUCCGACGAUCCUCCAGCCUCCUCCCUAUUGGAAUCCCAAUGGCUCCUGGAGUAGGAAAAAAGUUUAAACUACAUUCAUGUUCUUGUUCUGUGUCACUCGGCCCUGGGUAGUCUACCAUUUUGGAAUUCUCGGGUGCCAA: 0.504
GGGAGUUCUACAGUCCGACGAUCGUAUUACACAAGGGCAUCGAGUUCCAGGUGCCCCCCUUUUAGGACAGAGUUGUUUCCCAAUUCUGGAGGGAAGCUGAAUGGACACGGCUUCGUCAGUUUGCAUUUCUUUAUGGAAUUCUCGGGUGCCAA: 0.979
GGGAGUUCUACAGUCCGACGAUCGUUUCCACAGCCUUCAGCCUGUUCUAGAACGAUCACUGCCUUACCCCUGCUGCUGCAGUGGUGUGAGUCGUUUCACGGCUGAUGUCCCUCGGGGGAUUAAAGGAUCUAAAUGGAAUUCUCGGGUGCCAA: 0.322
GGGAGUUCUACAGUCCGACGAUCUGUGUCAUGUUGCUUAUGACCCUAUCUGUGAAGCCGGCUCUGGAGUGACAGAGAGAACCUCAAAAAUGUAGCUGGAAAGGACUUUAAAACUCAUCCAAUGCAGAGUCUCGUGGAAUUCUCGGGUGCCAA: 0.493
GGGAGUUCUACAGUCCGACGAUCUGUGACUCAGUUCUUUCCAUCUGUUUGUCCCGCUGCAAGCCUCUUUCUGCGCUGACUGUGACAUUGGAACGUGGCCUUCCUGUCACCCCCUCCGUGCCACGCACUGAAGGUGGAAUUCUCGGGUGCCAA: 0.314
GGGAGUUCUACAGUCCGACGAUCAAGAGUAAGCCUGGAAAAUCUCACUUGUUUUCGUAGUAUUGGCUGUAUUUCAGUGCCUCCAGCUUUGCACUUGAGAGACAAGUGUUUACUGCUGUUUGACUUUCCCCUUGUGGAAUUCUCGGGUGCCAA: 0.673
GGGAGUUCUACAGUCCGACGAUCGGUGUCUGUGUUUCUGUUUGCACUGUUUCUGUGACAGCCACCCAGGCAAAAUCAUGAAAUACACUCGGUUCUGUAAAUUGCUUCUUUAAAUGUCCCGUAGAUUCUUCCUGUGGAAUUCUCGGGUGCCAA: 0.356
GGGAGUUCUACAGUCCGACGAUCUGUGAAAUCCUACCACAUUCCAUGUCUGAAUUUUUGGAUUCGGGGUGGAUUUUCGUUGUCCGUGGAAGAACACAUGGAUCUCUCUGGCUUUCUCACCCAAGUUGGCCACUUGGAAUUCUCGGGUGCCAA: 0.274
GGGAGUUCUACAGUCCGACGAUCGUUUACGUCAUUUACACUGCUGCUUUUCUCAUAUUCUGCUUUUAAUUACUUGUAGUAAAUCAUUUGUUUGGGCUUCAAGCACUGUCUUCCAUCUGCAUCUUCCAGAUUUAUGGAAUUCUCGGGUGCCAA: 0.826
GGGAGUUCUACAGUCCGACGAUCUCUAUUUGCCAAUGAUAGAUCACUAAUUACAAAGCUAGUAGUUCUCCUUUGGGUAAGAGUCUGUUUGCCAUACAUCACUCUUCCACUGUGGCUUGGUAUUGUGCAGAUUAUGGAAUUCUCGGGUGCCAA: 2.74
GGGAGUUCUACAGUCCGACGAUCACUAGCUGAGCCGAUUCCUUCCUGUGAGCACACUGUAAGCUUUCAAGUUCUCUGGGCAGGAAUUACAGCACCUGUCCCCUGCAAUGGCCCUGCUGUGUGAUGCUCAUCGCUGGAAUUCUCGGGUGCCAA: 0.3
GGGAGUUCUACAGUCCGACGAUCCGCCCGGCACACAAGGCACGUUUGGCAUUUCUCUUUGAGAGAGUUUAUCAUUGGGAGAAGCCGCAGGGACAGAACUGAACGUCCUGCAGCUUCGGGGCAAGUGAGACAAUUGGAAUUCUCGGGUGCCAA: 0.83

Set 4
Target: Histone acetyltransferase KAT6A, winged helix 1, GST fusion (KAT6A, Homo sapiens, UniProt Q92794, residues 1-85)
Technique: protein binding microarray
Form: double-stranded DNA, one strand shown
Matrix: in vitro
Tested at: not given
Setting: 8-mer, flanks averaged, mean of 2 arrays, mostly near background
Reference: not given
Reading: higher = stronger binding
Endpoint: E-score
Residues (chain): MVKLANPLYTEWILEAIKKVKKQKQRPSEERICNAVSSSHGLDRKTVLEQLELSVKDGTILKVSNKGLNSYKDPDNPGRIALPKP
CCGTTGAC: 0.215
GCACAGGA: -0.0668
CACGCTGA: 0.0903
ACTATCTA: -0.0472
ACTGTTGG: -0.289
AAGTTGGA: -0.269
AACGCTAG: 0.0336
CAGAGGCA: -0.233
CATAGTCG: 0.0272
ATATGGGA: -0.161
ACGATAAG: -0.0707
CAGCAACC: -0.101
TCAGCCCA: -0.163
TGCCCCAA: -0.182
GACTAGAA: -0.152
GAGATATA: -0.00042
AGCCGAAC: 0.103
GCGCTTCA: 0.305
AGGTCCGC: 0.224
AACCTCAC: -0.171
GTTCGGCA: 0.00952
ATGTACGG: 0.204

Set 5
Target: Fragile X messenger ribonucleoprotein 1, C-terminal low-complexity region (Fmr1, Mus musculus, UniProt P35922)
Technique: RNA Bind-n-Seq
Form: RNA
Matrix: in vitro
Tested at: 200 nM
Setting: whole 134-nt RNA, ends assumed
Together with: 150 mM KCl
Reference: input library
Reading: higher = stronger binding
Endpoint: log2 enrichment
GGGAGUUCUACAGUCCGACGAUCGCAAGAAGUAAAAACAAAUGGAAAUGCUUCGGAUAGUGGCAGGGGUGGGGGUUGCUAAGGAAAGGGUGGGAUGGGAGUGGGUAAAGAGUUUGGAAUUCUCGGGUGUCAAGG: 0.26
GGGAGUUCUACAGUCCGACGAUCACCAUGCAGGUGGGCAUCUAUGGGAAGUGGGGCAAGGGGGGGAUAGGGAGGGGGGUAACACUUUGGGAACAGGUGGUCCCAGGUCGUUUCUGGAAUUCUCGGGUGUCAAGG: 0.843
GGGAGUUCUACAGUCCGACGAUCCCUGUGCUACACAUCGUAUGUACCGAAUCGGGUUUUUUUGGGUUUUUGGGAAAAAAAGGGAAAGUAUUAUGUUACGCCGUUCGGAUCUGCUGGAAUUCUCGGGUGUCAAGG: -0.741
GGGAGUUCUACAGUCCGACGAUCCACAGACAACACGCACCCACACAGACACAGAGGGAAGGGGUUGGGAUGGGGACAGGGGGCACAGCAGGGCGGGGUAGGACCCCAGCCCCUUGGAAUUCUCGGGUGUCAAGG: 1.03
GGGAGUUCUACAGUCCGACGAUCCAAGUCCUGUGCUACACAUCGUAUGUACCGAAUCGGAAAAGGGAAAAGGAAAAGGGAAAGUAUUAUGUUACGCCGUUCGGAUCUGCACUUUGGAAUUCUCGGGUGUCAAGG: -0.702
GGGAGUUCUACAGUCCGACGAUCGUCCUGUGCUACACAUCGUAUGUACCGAAUCGGGGUUUGGGGUUUUUUUGGGGAGGGGAAAGUAUUAUGUUACGCCGUUCGGAUCUGCACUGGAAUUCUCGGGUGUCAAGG: 0.767
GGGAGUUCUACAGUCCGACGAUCAGUCCUGUGCUACACAUCGUAUGUACCGAAUCGGGAAAAAGGAAAAAGGGAAAAAGGAAAGUAUUAUGUUACGCCGUUCGGAUCUGCACUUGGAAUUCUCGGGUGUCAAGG: -0.652
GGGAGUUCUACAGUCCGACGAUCCACAGACAACACGCACCCACACAGACACAGAGGGAAGGGGUUGGGAUGGGGACAGGGUGCACAGCAGGGCGGGGUAGGACCCCAUCCCCUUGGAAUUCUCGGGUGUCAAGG: 1.35
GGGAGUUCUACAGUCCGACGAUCUAUGAGGAUGAGUUGGUGCCCCUUUUUGAGAAGGCCGGACCCAUUUGGGAUCUACGUCUUAUGAUGGAUCCACUGUCCGGUCAGAAUAGAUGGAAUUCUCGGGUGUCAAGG: -0.153
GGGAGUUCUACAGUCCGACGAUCGUCCUGUGCUACACAUCGUAUGUACCGAAUCAAAUUUUUUUAAAUUUAAACCCCCAAAAAAGUAUUAUGUUACGCCGUUCGGAUCUGCACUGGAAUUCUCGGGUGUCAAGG: 0.13
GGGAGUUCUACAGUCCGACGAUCAAGUCCUGUGCUACACAUCGUAUGUACCGAAUCGGCCCCGGCCCCGGGGCCCCGGGAAAGUAUUAUGUUACGCCGUUCGGAUCUGCACUUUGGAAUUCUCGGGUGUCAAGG: -1.11
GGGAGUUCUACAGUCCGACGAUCCCUGUGCUACACAUCGUAUGUACCGAAUCGGGUUUUUUUGGGAAAAAAAGGGAAAAAGGGAAAGUAUUAUGUUACGCCGUUCGGAUCUGCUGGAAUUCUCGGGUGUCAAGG: -1.01
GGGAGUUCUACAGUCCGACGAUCUAACUUUAGAGGAGGAUCUGAUGGAUAUGGCAGUGGCCGUGGAUUUGGGGAUGGCUAUAAUGGGUAUGGAGGAGGACCUGGAGGUGGCAAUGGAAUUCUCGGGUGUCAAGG: 0.201
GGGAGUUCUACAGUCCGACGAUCAAGUCCUGUGCUACACAUCGUAUGUACCGAAUCGGGCCCCGGGCCCCGGCCCCGGGGAAAGUAUUAUGUUACGCCGUUCGGAUCUGCACUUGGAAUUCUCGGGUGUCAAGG: -0.86

Repeated from above (set 1):
L52M: -1.48 natural log
N42G: -1.45 natural log
R30N: -1.48 natural log
T48F: -1.41 natural log
A49S: -1.53 natural log
L31D: -1.5 natural log
M51C: -1.38 natural log
L52G: -1.48 natural log
S43P: -1.37 natural log
T37S: -1.21 natural log
R53P: -1.48 natural log
K34C: -1.47 natural log
